# Published values from different studies.
# Lines come from different studies, so protocols differ. Values joined by “and” are separate records of one study, mostly repeats; a detail may differ. ± gives the spread as reported.
# Cgas: Cyclic GMP-AMP synthase (Cgas, Mus musculus, UniProt Q8C6L5)
# LRRC8A: LRRC8A (Homo sapiens, UniProt Q8IWT6)
# SCN9A: Sodium channel protein type 9 subunit alpha (SCN9A, Homo sapiens, UniProt Q15858)
# HTR1D: 5-hydroxytryptamine receptor 1D (HTR1D, Homo sapiens, UniProt P28221)
SMILES,target or system,assay,system,conditions,how to read,measurement,result
Cc1nn(-c2nc3c(F)cc(F)cc3s2)c(O)c1C(c1ccc(C(F)(F)F)cc1)c1c(C)nn(-c2nc3c(F)cc(F)cc3s2)c1O,Cgas,"enzyme activity, inhibitor, pyrophosphatase-coupled",,"25 µM, 1.5 h, mouse enzyme",,inhibition,95.9%
O=C(Nc1cccc2c(=O)cc(-c3nnn[nH]3)oc12)c1ccc(OCCCCc2ccccc2)cc1,"Volume-regulated anion channel subunit LRRC8C, part LRRC8A IL1 chimera (LRRC8C, Homo sapiens, UniProt Q8TDW0)","ion current, inhibitor, whole-cell patch clamp","HCT LRRC8-/- cells, transfected","10 µM, low ionic strength swelling, -100 mV",,inhibition,35.2% and 56% and 70.7% and 51%
CC1=NCCNC(=O)C1=NNc1ccc(S(N)(=O)=O)cc1,bovine α-glucosidase,"enzyme activity, inhibitor, glucose oxidase",,"200 µg/mL, with: maltose",,inhibition,47.8%
Cc1c(-c2ccccc2)oc2c(C(=O)O)cccc2c1=O,LRRC8A,endogenous hypotonicity-induced current,HEK293,30 µM,,inhibition,46.5 ± 2%
Cn1cc(-c2ccc(-c3cncc(Cl)c3N3CCC4(CCNC4=O)CC3)cc2)cn1,COLO 205,"gene expression, microarray, refers to: SLC39A8 mRNA",,"concentration not given, 6 h",baseline: untreated cells,log2 fold change,1.82
Nc1ncnc2c1ncn2[C@@H]1O[C@H](COP(=O)(O)CP(=O)(O)OP(=O)(O)O)[C@@H](O)[C@H]1O,"P2X purinoceptor 1 (P2RX1, Homo sapiens, UniProt P51575, M214A)",calcium influx,,10 µM,baseline: ionomycin response,calcium influx,100%
[2H]c1cc(C)c(NC(=O)c2cnc(Nc3cc(N4CCCCC4)nc(C)n3)s2)c(Cl)c1,"Proto-oncogene tyrosine-protein kinase Src (SRC, Homo sapiens, UniProt P12931)",,,0.01 µM,,inhibition,> 90%
Cc1nc(Nc2ncc(C(=O)Nc3c(C)cccc3Cl)s2)cc(N2CCN(CCO)CC2)n1,"Receptor tyrosine-protein kinase erbB-2 (ERBB2, Homo sapiens, UniProt P04626)","kinase activity, inhibitor, Kinase-Glo MAX",,1 µM,,inhibition,77.3%
COc1cc(C(=O)NS(=O)(=O)c2ccccc2C)ccc1Cc1cn(C)c2ccc(NC(=O)OC3CCCC3)cc12,"Volume-regulated anion channel subunit LRRC8C, part LRRC8A IL1 chimera (LRRC8C, Homo sapiens, UniProt Q8TDW0, Y126F)","ion current, inhibitor, whole-cell patch clamp",HCT LRRC8-/- cells,"0.3 µM, +100 mV",,inhibition,9.15% and 64.4% and 12.5% and 1.31% and 45.3% and 23.9%
Cc1ccc(C(=O)Nc2ccc3ccccc3c2)o1,SCN9A,"ion current, whole-cell patch-clamp",,"10 µM, hNaV1.7",,inhibition,4.18%
O=C(/C=C/c1cccnc1)NCCCCC1CCN(C(=O)c2ccccc2)CC1,NMNAT1 human,"enzyme activity, coupled alcohol dehydrogenase counter-screen",,"concentration not given, with: 50 µM NMN",,inhibition,no inhibition
CN1CCN(c2cc(-c3ccncc3)c(-c3ccc4ccccc4c3)nn2)CC1,"Parathyroid hormone/parathyroid hormone-related peptide receptor (PTH1R, Homo sapiens, UniProt Q03431)","antagonist, FLIPR",,10 µM,,inhibition,14.5%
CC(C)c1noc2ncc(C(=O)c3ccccc3O)cc12,SCN9A,"ion current, inhibitor, whole-cell patch clamp",,10 µM,,inhibition,7.22% and 18.3% and 14.8% and 9.71% and 6.65%
O=C(NO)c1ccc(CN2CCCCc3ccccc32)c(F)c1,"Sodium-dependent dopamine transporter (SLC6A3, Homo sapiens, UniProt Q01959)","radioligand binding, PDSP radioligand binding",,10 µM,,inhibition,-57.2%
COc1ccc2c(c1)C(=O)N(CCCN1CCN(c3ccccc3OC)CC1)C2,HTR1D,radioligand binding,,"concentration not given, with: [3H]5-CT",,inhibition,76.3%
Cc1nn(-c2nc3ccc(Cl)c(Cl)c3[nH]2)c(O)c1C1OC(=O)c2ccccc21 (stereo not shown),Cgas,"enzyme activity, inhibitor, pyrophosphatase-coupled",,"0.5 µM, 1.5 h, mouse enzyme",,inhibition,77.2%
CCN1/C(=C/C(C)=O)Sc2ccc(F)cc21,"Neurotensin receptor type 1 (NTSR1, Homo sapiens, UniProt P30989)",,,10 µM,,inhibition,0.4%
CC[C@@H]1[C@H](F)C(=O)N[C@@H]1COc1nccc2cc(C(N)=O)c(OC)cc12,"Cyclin-dependent kinase 10 (CDK10, Homo sapiens, UniProt Q15131)","ATP-site probe binding, ActivX profiling",THP-1 cell lysate,"0.04 mM, Lys2 site",,inhibition,6.6%
CC1=NN(c2cccc(C)c2)C(=O)C1=NNc1ccc(S(N)(=O)=O)cc1,bovine α-glucosidase,"enzyme activity, inhibitor, glucose oxidase",,"500 µg/mL, with: maltose",,inhibition,44.2%
C[C@H]1[C@H](OC(=O)CCC(=O)O)O[C@@H]2O[C@@]3(C)CC[C@H]4[C@H](C)CC[C@@H]1[C@@]24OO3,"Non-structural polyprotein pORF1, helicase domain (Hepatitis E virus genotype 1, UniProt P33424)","ATPase activity, inhibitor, colorimetric",,"39 µM, with: ATP 100 µM",,inhibition,21.4%
CCCC[C@H](NC(=O)[C@H](C)c1c(C)[nH]c2ccc(O)cc12)c1ncc(-c2cc3ccccc3nc2OC)[nH]1,"Mu-type opioid receptor (OPRM1, Homo sapiens, UniProt P35372)",,,10 µM,,inhibition,66%
COc1cccc(OC[C@H]2CN(CCN3CCc4ccccc43)CCO2)c1,HTR1D,radioligand binding,,"concentration not given, with: [3H]5-CT",,inhibition,25.9%
CC1=NOC(=O)C1=NNc1ccc(S(N)(=O)=O)cc1,bovine α-glucosidase,"enzyme activity, inhibitor, glucose oxidase",,"100 µg/mL, with: maltose",,inhibition,37.5%
CC(=O)N[C@H]1[C@@H](OP(=O)(O)OP(=O)(O)OC[C@H]2O[C@@H](n3ccc(=O)[nH]c3=O)[C@H](O)[C@@H]2O)O[C@H](CO)[C@H](O)[C@@H]1O,,"binding, MIDAS equilibrium dialysis LC-MS",A2AR-BRIL thermostabilized,concentration not given,baseline: no-protein control,log2 fold change,-0.188
CN(C(=O)n1cnc(-c2ccc[n+]([O-])c2)c1)C1CCCCC1,"Nociceptin receptor (OPRL1, Homo sapiens, UniProt P41146)",binding,,10 µM,,inhibition,2.05%
CCn1cc(-c2cc(Cn3ccnc3)cc3c2CCN([C@H](c2cc(OC)ccn2)C2CC2)C3=O)c(C(F)(F)F)n1,Pfeiffer,cell growth,,120 h,,EC50,2.26 µM
O=C1c2ccccc2CCN1CCCCN1CCN(c2cccc(Cl)c2Cl)CC1,HTR1D,radioligand binding,,"concentration not given, with: [3H]5-CT",,inhibition,96.9%
CC(=O)c1ccc(-c2cccc(NC(=O)CCc3cccc4c3B(O)OC4)c2)cc1,"Cleavage and polyadenylation specificity factor subunit 3 (Cpsf3, Mus musculus, UniProt Q9QXK7)",pre-mRNA cleavage,mouse nuclear extract,200 µM,,inhibition,96%
CC1=NN(c2ccccc2)C(=O)C1=NNc1ccc(S(N)(=O)=O)cc1,bovine α-glucosidase,"enzyme activity, inhibitor, glucose oxidase",,"50 µg/mL, with: maltose",,inhibition,36.7%
Cc1c(-c2ccccc2)oc2c(C(=O)OCCN3CCCCC3)cccc2c1=O,LRRC8A,"ion current, inhibitor",HEK293,"30 µM, with: hypotonic stimulation",,inhibition,~78%
OCCCN1CC[C@@H]2C[C@H]1c1cc(-c3ccc(C(F)(F)F)cc3)ccc12,"Histamine H3 receptor (HRH3, Homo sapiens, UniProt Q9Y5N1)","radioligand binding, PDSP competition binding",,10 µM,,inhibition,< 50%
CCn1cc(-c2cc(Cn3ccoc3=N)cc3c2CCN([C@@H](C)c2cc(OC)ccn2)C3=O)c(C(F)(F)F)n1,HCC78,"cell growth, inhibitor",,120 h,,EC50,0.00461 µM
CC(C)C[C@H](NC(=O)C[C@H](O)[C@H](CC(C)C)NC(=O)[C@H](Cc1c[nH]cn1)NC(=O)CNC(=O)[C@@H](NC(=O)[C@H](C)NC(=O)[C@H](Cc1c[nH]c2ccccc12)NC(=O)[C@H](CCC(N)=O)NC(=O)[C@@H](Cc1ccccc1)NC(=O)COCCOCCNC(=O)CCC(C(=O)O)N1CCN(CC(=O)O)CCN(CC(=O)O)CCN(CC(=O)O)CC1)C(C)C)C(N)=O (stereo partly shown) [lutetium-177 labelled],,,"BALB/c nu/nu mice, blood","intravenous, 100 pmol, 1 h, with: PA 300 µg",,tissue uptake,0.38 ± 0.07 %ID/g
Cc1ccc(OC[C@@H]2CN(CCN3CCc4ccccc43)CCO2)cn1,HTR1D,radioligand binding,,"concentration not given, with: [3H]5-CT",,inhibition,37.1%
COc1cc(C2=CCCCc3c2ccc(OC)c3OCc2cnc([N+](=O)[O-])n2C)cc(OC)c1OC,tubulin,colchicine binding,,"5 µM, with: 5.0 µM [3H]colchicine",,inhibition,6.1 ± 3%
CN(C)c1ccc2cc(C(=O)NS(=O)(=O)c3ccccc3-c3ccccc3)oc2c1,kinase panel,,,"10 µM, 366 kinases",,inhibition,≤ 50%
O=c1c(O)cc([C@H]2Oc3cc(O)cc(O)c3C[C@H]2O)cc2c([C@H]3Oc4cc(O)cc(O)c4C[C@H]3O)cc(O)c(O)c12,alpha-amylase,"enzyme activity, inhibitor, DNS method",,"50 µg/mL, with: soluble starch",,inhibition,35.1%
C[N+](C)(C)Cc1cccc(N=Nc2cccc(C[N+](C)(C)C)c2)c1,"muscarinic receptor, Rana","agonist-induced potassium current, antagonist, double sucrose gap voltage clamp",atrial trabeculae,"20 µM, with: carbachol 5 µM",,inhibition,10 to 20%
Cc1cc2c(cc1N1C(=O)c3cccc4c(CCCO)ccc(c34)C1=O)n(C)c(=O)n2C (racemic),"Histone acetyltransferase KAT2B (KAT2B, Homo sapiens, UniProt Q92831)","binding, BROMOscan binding",,100 nM,,inhibition,88%
c1cncc(OC[C@@H]2CN(CCN3CCc4ccccc43)CCO2)c1,HTR1D,radioligand binding,,"concentration not given, with: [3H]5-CT",,inhibition,22.4%
CCc1oc2ccccc2c1C(=O)c1cc(Br)c(O)c(Br)c1,"Solute carrier family 22 member 12 (SLC22A12, Homo sapiens, UniProt Q96S37, N237A)",uric acid uptake,HEK293T transfected with SLC22A12 N237A,"0.5 µM, 10 min, 37 °C, mean, with: [14C]urate 200 µM",,inhibition,70%
CC1=NN(c2ccccn2)C(=O)C1=NNc1ccc(S(N)(=O)=O)cc1,bovine α-glucosidase,"enzyme activity, inhibitor, glucose oxidase",,"500 µg/mL, with: maltose",,inhibition,61%
COc1cc(-c2cc(C(C)=O)n3ccccc23)c(OC)cc1Cn1ccnc1,"Bromodomain-containing protein 7 (BRD7, Homo sapiens, UniProt Q9NPI1)",,,1 µM,,inhibition,92.3%
O=C1c2ccccc2CCN1CCCCN1CCN(c2ccccn2)CC1,HTR1D,radioligand binding,,"concentration not given, with: [3H]5-CT",,inhibition,68.9%
O=C(O)[C@@H](O)[C@H](O)[C@H](O)[C@@H](O)C(=O)O,,"binding, MIDAS equilibrium dialysis LC-MS",A2AR-BRIL thermostabilized,concentration not given,baseline: no-protein control,log2 fold change,-0.17
CC1=NN(c2ccc(F)cc2)C(=O)C1=NNc1ccc(S(N)(=O)=O)cc1,bovine α-glucosidase,"enzyme activity, inhibitor, glucose oxidase",,"200 µg/mL, with: maltose",,inhibition,41.9%
Cc1ccnc(OC[C@H]2CN(CC(=O)N3CCc4ccccc43)CCO2)c1,HTR1D,radioligand binding,,"concentration not given, with: [3H]5-CT",,inhibition,-0.3%
CC1=NN(c2cccc([N+](=O)[O-])c2)C(=O)C1=NNc1ccc(S(N)(=O)=O)cc1,bovine α-glucosidase,"enzyme activity, inhibitor, glucose oxidase",,"100 µg/mL, with: maltose",,inhibition,47.5%
NC/C(=C\F)COc1cccc(Cn2c(=S)[nH]c(=O)c3[nH]cnc32)c1,"Amine oxidase [copper-containing] 3 (Rattus norvegicus, UniProt O08590)",,rat adipose tissue,1 µM,,inhibition,102%
Nc1nc2c(ncn2[C@@H]2O[C@H](COP(=O)(O)O)[C@@H](O)[C@H]2O)c(=O)[nH]1,"GUK1 (Homo sapiens, UniProt Q16774, D103A)","enzyme activity, NADH-coupled",,7.812 µM,,reaction rate,2.71 s⁻¹ and 3.55 s⁻¹ and 1.42 s⁻¹
CC1=NNC(=S)NC(=O)C1/N=N/c1ccc(S(N)(=O)=O)cc1 (stereo not shown),bovine α-glucosidase,"enzyme activity, inhibitor, glucose oxidase",,"100 µg/mL, with: maltose",,inhibition,31.3%
COc1cc(C2=CCCc3c2ccc(OC)c3OC(C)c2cnc([N+](=O)[O-])n2C)cc(OC)c1OC (stereo not shown),tubulin,colchicine binding,,"5 µM, with: 5.0 µM [3H]colchicine",,inhibition,4.8 ± 2%
